# Experimental data pooled from the literature.
# Several values in a cell are separate wells, animals, samples, runs or records. Numbers after ± are the reported error.
# CASP7: Caspase-7 (CASP7, Homo sapiens, UniProt P55210)
# G-quadruplex DNA: G-quadruplex DNA, G-quadruplex (Homo sapiens)
# Gria2: Glutamate receptor 2 (Gria2, Rattus norvegicus, UniProt P19491)
# CNR2: Cannabinoid receptor 2 (CNR2, Homo sapiens, UniProt P34972)
# T1: G-quadruplex DNA, G-quadruplex (Homo sapiens); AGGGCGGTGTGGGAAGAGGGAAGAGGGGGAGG
# T2: riboswitch RNA A38C; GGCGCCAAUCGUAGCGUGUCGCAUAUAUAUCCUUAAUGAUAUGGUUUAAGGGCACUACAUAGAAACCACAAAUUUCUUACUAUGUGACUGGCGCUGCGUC
# T3: G-quadruplex DNA, G-quadruplex (Homo sapiens); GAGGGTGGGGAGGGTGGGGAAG
Compound,target or system,test,system,setting,how to read,endpoint,value
CC[C@H](C)[C@H](NC(=O)[C@H](CCCC(=O)O)NC(=O)[C@H](CC(=O)O)NC(C)=O)C(=O)N[C@@H](CC(=O)O)C(=O)COC(=O)c1c(C)cccc1C,CASP7,"enzyme activity, inhibitor",,,,kinact/KI,488000 M⁻¹ s⁻¹
COC(=O)[C@@]1(C)C=C(C(=O)Nc2cccc(C(=O)Nc3ccc(Nc4nccc(-c5cccnc5)n4)c(C)c3)c2)C(=O)CC1,"Mitogen-activated protein kinase 1 (MAPK1, Homo sapiens, UniProt P28482)","kinase activity, inhibitor",,"44.44 µM, unit not given",relative to: no inhibitor,remaining activity,0.625
CC(=O)N[C@H](C(=O)N[C@@H](CCCCN)C(=O)N[C@@H](CCC(N)=O)C(=O)N[C@@H](CC(=O)O)C(=O)COC(=O)c1c(C)cccc1C)C(C)C,CASP7,"enzyme activity, inhibitor",,,,kinact/KI,800 M⁻¹ s⁻¹
N#CN1CC[C@H](C(=O)Nc2nc3c(s2)CN(C(=O)CN=[N+]=[N-])CC3)C1,"ATP-citrate synthase (ACLY, Homo sapiens, UniProt P53396)",two-step pull-down LC-MS/MS,HEK293T,click chemistry probe,,spectral count,2
CC(C)[C@@H]1NC(=O)[C@H](Cc2ccccc2)NC(=O)CSC[C@@H](C(N)=O)NC(=O)[C@H](CCC(=O)O)NC(=O)[C@H](CO)NC(=O)[C@H](Cc2c[nH]c3cccc(Cl)c23)NC(=O)[C@H](C2CCCCC2)NC(=O)[C@H](C(C)C)NC(=O)[C@H](Cc2ccc(O)cc2)NC(=O)[C@H](CC(=O)O)NC(=O)[C@H](Cc2c[nH]c3ccccc23)NC(=O)[C@H](Cc2ccc(N)nc2)NC(=O)[C@H](Cc2c[nH]c3ccc(Cl)cc23)NC(=O)[C@H](CCC(=O)O)NC1=O,"Interleukin-1 receptor-like 2 (IL1RL2, Homo sapiens, UniProt Q9HB29)","reporter gene (SEAP), inhibitor, HEK-Blue IL-36R reporter",HEK-Blue IL-36R cells,"3.7 µM, 6 h, together with: IL-36β 0.1 ng/mL",,remaining activity,7.6%
COC1CN([C@H]2CC[C@H]([C@@]3(C)Oc4c(Cl)cc(C(=O)NCc5c(SC)cc(C)[nH]c5=O)c(C)c4O3)CC2)C1,,"RNA-seq, measured: MAST4","human, whole blood","dose not given, 24 h",relative to: pretreatment baseline,log2 fold change,2.45
CN(C)c1ccc(C2=C/C(=C/C=C/c3sc4ccccc4[n+]3C)c3ccccc3O2)cc1,"T1, G-quadruplex DNA, G-quadruplex (Homo sapiens)",fluorescence turn-on,,,,binding,binds
C[N+]1(C)CCSC1,"Chrnd/Chrna1/Chrne (Mus musculus, UniProt P02716+P04756+P20782, G173A/S470W)","ligand binding, agonist, single-channel kinetics",,chain A,relative to: wild type over mutant,affinity ratio,1.3
COc1ccc(C(OCCN2CCCC(C(=O)O)C2)(c2ccc(OC)cc2)c2ccc(OC)cc2)cc1 (stereo not shown),"Sodium- and chloride-dependent GABA transporter 1 (SLC6A1, Homo sapiens, UniProt P30531)","GABA transport, inhibitor, radioligand uptake",HEK293F transfected,"160 nM, 15 min pre, 45 min uptake, room temperature, together with: [3H]-GABA 30 nM, GABA 25 µM",higher = more uptake,[3H]-GABA uptake,1090 a.u. and 1480 a.u. and 1010 a.u. and 1240 a.u. and 1470 a.u. and 4330 a.u. and 1360 a.u. and 4820 a.u.
COC(=O)Cc1cc2c(cc1C(=O)c1cccc(I)c1)OCO2,Gria2,"glutamate-evoked current, whole-cell patch clamp",HEK-293T,"concentration not given, glutamate alone after washout, together with: glutamate",,current amplitude after recovery,1270 ± 56 pA
O=C(CCCCCCS)Nc1ccccc1,"Histone deacetylase 8 (HDAC8, Homo sapiens, UniProt Q9BY41)",ITC,Hepes buffer,pH 7.5,,TΔS,5.5 kcal/mol
CCOC(=O)[C@](CC)(CCCSCCOCCOCCNC(=O)CCCCCN1C(=CC=CC=CC2=[N+](C)c3ccc4ccccc4c3C2(C)C)C(C)(C)c2c1ccc1ccccc21)NC(=O)c1ccc(C2CC2)c(Cc2ccc(F)cc2)n1.[Cl-],CNR2,radioligand binding,,,relative to: CB1 over CB2 (human),Ki ratio,8
CC(=O)N[C@@H](Cc1c[nH]c2ccccc12)C(=O)N[C@@H](CCC(=O)O)C(=O)N[C@@H](C)C(=O)N[C@@H](CC(=O)O)C(=O)COC(=O)c1c(C)cccc1C,CASP7,"enzyme activity, inhibitor",,,,kinact/KI,20400 M⁻¹ s⁻¹
CC1CCc2nc(-c3c[nH]nc3-c3ccccc3)ccc2N1 (stereo not shown),human kinase panel,"binding, KINOMEscan",,"10000 nM, %Ctrl below 1",,number of kinases hit,0
CCCCCC(O)/C=C/C=O (stereo not shown),"Monofunctional C1-tetrahydrofolate synthase, mitochondrial (MTHFD1L, Homo sapiens, UniProt Q6UB35)",competitive isoTOP-ABPP,Ramos soluble proteome,"100 µM, 60 min, together with: iodoacetamide probe","relative to: DMSO over compound-treated, higher = stronger cysteine blockade",isoTOP-ABPP competition ratio,6.3
O=C1c2sc(-c3ccc(N4CCC(F)C4)nc3F)nc2CCN1c1cccnc1 (stereo not shown),"TAR DNA-binding protein 43, aggregated (TARDBP, Homo sapiens, UniProt Q13148)",radioligand binding,"human, FTLD-TDP type B extract",together with: radioligand 6.91 nM,,specific binding,1.43 nM and 1.38 nM
CCCCCCCCCCCCC/C=C/C=O,"Fatty acid synthase (FASN, Homo sapiens, UniProt P49327)",competitive isoTOP-ABPP,Ramos soluble proteome,"100 µM, together with: iodoacetamide probe","relative to: DMSO over compound-treated, higher = stronger cysteine blockade",isoTOP-ABPP competition ratio,1
Nc1nc2c(ncn2[C@H]2C[C@H](O)[C@@H](CO)O2)c(=O)[nH]1,"T2, riboswitch RNA A38C",fluorescence,,5 µM,,binding,binds
O=C(O)Cc1cc2c(cc1C(=O)c1ccccc1I)OCO2,Gria2,whole-cell patch clamp,HEK-293T,"concentration not given, together with: glutamate",,desensitization time constant,1.7 ± 0.1 ms
C#CCCC1(CCC(=O)NCC2CN(CCCCCNC(=O)CN(CCN)C(=O)Cn3cnc4c(=O)[nH]c(N)nc43)CCN(CCCCCNC(=O)CN(CCN)C(=O)Cn3cnc4c(=O)[nH]c(N)nc43)CCN(CCCCCNC(=O)CN(CCN)C(=O)Cn3cnc4c(=O)[nH]c(N)nc43)CCN2CCCCCNC(=O)CN(CCN)C(=O)Cn2cnc3c(=O)[nH]c(N)nc32)N=N1 (stereo not shown),"T3, G-quadruplex DNA, G-quadruplex (Homo sapiens)",FRET melting,,,,change in melting temperature,15.4 °C
O=C(Nc1ccc(N2CCOCC2)cc1)c1cc(-c2ccccc2)n(-c2ccccc2)n1,"Genome polyprotein, NS2B-NS3 protease (dengue virus type 2, UniProt P29990)",reporter gene,HeLa,12.5 µM,,inhibition,39%
Cc1ccc(NC(=O)c2nn(C)c(=O)c3ccccc23)nc1,human kinase panel,"binding, KINOMEscan",,"10000 nM, %Ctrl below 1",,number of kinases hit,0
CCOC(=O)C(CC)(CCCSCCOCCN)NC(=O)c1ccc(C2CC2)c(Cc2ccc(F)cc2)n1 (stereo not shown),CNR2,radioligand binding,,,relative to: CB1 over CB2 (human),Ki ratio,3
CC(=O)N[C@@H](CC(=O)O)C(=O)N[C@H](C(=O)N[C@@H](C)C(=O)N[C@@H](CC(=O)O)C(=O)COC(=O)c1c(C)cccc1C)[C@@H](C)OCc1ccccc1,CASP7,"enzyme activity, inhibitor",,,,kinact/KI,557000 M⁻¹ s⁻¹
N[C@H]1CC[C@H](Nc2nccc(-c3cccnc3Oc3ccc(NC(=O)NC4CC4)c4ccccc34)n2)CC1,"Glucosidase 2 subunit beta (Homo sapiens, UniProt P14314)","kinobead competition pulldown, measured: PRKCSH",HEK293/HCT116 lysate mixture,"10 µM, 1 h, 4 °C",lower = stronger competition,log2 LFQ intensity,20.7 and 19.9 and 20 and 18.4
Cc1cc(C#CC2(O)CCCCC2)cc2c1cc(C(=O)O)n2-c1cccc(Cl)c1,"Microphthalmia-associated transcription factor, residues 1-296 (Homo sapiens, UniProt O75030)",isothermal titration calorimetry,,25 °C,,-TΔS,1.16 kcal/mol and 2.49 kcal/mol
Cc1ncsc1-c1ccc(C(C)NC(=O)C2CC(O)CN2C(=O)C(NC(=O)CCCCCCCCCCN2CCCC(Nc3ncc(Cl)c(Nc4ccccc4S(=O)(=O)C(C)C)n3)C2)C(C)(C)C)cc1 (stereo not shown),22Rv1,"RNA-seq, measured: MND1 mRNA",,concentration not given,relative to: DMSO,log2 fold change,-1.22
Fc1ccc(Nc2nc(NC3CCCCC3)c3cc(C(F)(F)F)ccc3n2)cc1F,"Beta-2 adrenergic receptor (ADRB2, Homo sapiens, UniProt P07550, I153L)","β-arrestin2 recruitment, antagonist, BRET",,mutant I153L,relative to: isoprenaline maximal response,maximal inhibition,-2.4%
Cc1ccc(C(=O)NC(C)c2cccc(-c3ccncc3)c2)cn1 (stereo not shown),human kinase panel,"binding, KINOMEscan",,"10000 nM, %Ctrl below 1",,number of kinases hit,0
Nc1nc2ncc(O)nc2c(=O)[nH]1,"lumazine dehydrogenase, Cupriavidus sp. LA-1",,,pH 7.5,,Km,34.1 ± 5.1 µM
CC1=NN(c2ccc(C)c(C)c2)C(=O)/C1=N\Nc1cccc(-c2cccc(C(=O)NCCOCCOCCNC(=O)CCCC[C@@H]3SC[C@@H]4NC(=O)N[C@@H]43)c2)c1O,"Transcription factor EB, bHLH-LZ domain (TFEB, Homo sapiens, UniProt P19484)","binding, SPR",,compound immobilised on SA chip,,koff,0.0108 ± 0.00012 s⁻¹
